Measurements of several laboratories.
Protocols differ between the studies behind these lines. ± marks the error that the study gave.

CSCC[C@H](N)C(=O)N[C@H](CC(C)C)C(=O)N[C@@H](CCCNC(=N)N)C(=O)N[C@@H](Cc1c[nH]c2ccccc12)C(=O)N[C@@H](CO)C(=O)N[C@@H](CCCNC(=N)N)C(=O)N[C@@H](CCCCN)C(=O)N[C@@H](CC(C)C)C(=O)N1CCC[C@H]1C(=O)N[C@@H](CS)C(=O)N[C@H](C(=O)N[C@@H](CO)C(N)=O)C(C)C — remaining activity (12G5 competition, SUP-T1 cells; human plasma; concentration not given, 8 h): 45 ± 5%
O=C1CC2(CCCC2)CC(=O)N1CCCCN1CCN(c2ncccn2)CC1 — remaining parent compound (LC-MS; human liver microsomes; 10 µM, 60 min, pH 7.4, together with: NADPH; reference: time 0): 15%
CC(C)C[C@@H]1NC(=O)CNC(=O)[C@H](CC(N)=O)NC(=O)[C@H](CCCNC(=N)N)NC(=O)[C@H]([C@@H](C)O)NC(=O)[C@@H]2CSSC[C@@H]3NC(=O)[C@H]([C@@H](C)O)NC(=O)CNC(=O)CNC(=O)[C@H](C(C)C)NC(=O)[C@@H]4CSSC[C@H](NC(=O)[C@H]([C@@H](C)O)NC(=O)[C@H](CSSC[C@H](NC(=O)[C@H](C(C)C)NC(=O)[C@@H]5CCCN5C1=O)C(=O)NCC(=O)N[C@@H](CCC(=O)O)C(=O)N[C@@H]([C@@H](C)O)C(=O)N4)NC(=O)CNC(=O)[C@@H]1CCCN1C(=O)[C@H]([C@@H](C)O)NC(=O)[C@H](CC(N)=O)NC3=O)C(=O)N[C@@H](CO)C(=O)N[C@@H](Cc1c[nH]c3ccccc13)C(=O)N1CCC[C@H]1C(=O)N[C@@H](C(C)C)C(=O)N2 — remaining peptide (HPLC; ammonium bicarbonate; 180 µM, 14 days, pH 9.0, 25 °C, deamidation stability): 89.9 ± 0.5%
CCOC(=O)c1sc(Nc2ncccn2)nc1-c1ccccn1 — remaining parent (mouse liver microsomes; 60 min): 43.3 area %
CC(C)C[C@@H]1NC(=O)[C@H](CCCCN)NC(=O)[C@H](CC(N)=O)NC(=O)[C@H](CCCNC(=N)N)NC(=O)[C@H]([C@@H](C)O)NC(=O)[C@@H]2CSSC[C@@H]3NC(=O)[C@H]([C@@H](C)O)NC(=O)CNC(=O)CNC(=O)[C@H](C(C)C)NC(=O)[C@@H]4CSSC[C@H](NC(=O)[C@H](CCCCN)NC(=O)[C@H](CSSC[C@H](NC(=O)[C@H](C(C)C)NC(=O)[C@@H]5CCCN5C1=O)C(=O)NCC(=O)N[C@@H](CCC(=O)O)C(=O)N[C@@H]([C@@H](C)O)C(=O)N4)NC(=O)CNC(=O)[C@@H]1CCCN1C(=O)[C@H]([C@@H](C)O)NC(=O)[C@H](CC(N)=O)NC3=O)C(=O)N[C@@H](CO)C(=O)N[C@@H](Cc1c[nH]c3ccccc13)C(=O)N1CCC[C@H]1C(=O)N[C@@H](C(C)C)C(=O)N2 — remaining peptide (HPLC; ammonium bicarbonate; 180 µM, 7 days, pH 9.0, 25 °C, deamidation stability): 99.5 ± 0.4%
CCOc1ccc2ccc(=O)oc2c1 — remaining compound (mouse liver microsomes; 1 µM, 60 min, pH 7.4, together with: with cofactors): 0.2%
N#Cc1ccc(Nc2nc(N)cc(Oc3c(F)cc(-c4ccc(C#N)cc4)cc3F)n2)cc1 — remaining compound (human plasma; 1 µM, 2.00 h, pH 7.4, 37 °C): 86.7%
CSCC[C@H](NC(=O)[C@H](CCCCN)NC(=O)[C@H](CCCNC(=N)N)NC(=O)[C@H](CO)NC(=O)[C@H](Cc1c[nH]c2ccccc12)NC(=O)[C@H](CCCNC(=N)N)NC(=O)[C@@H](CC(C)C)NC(=O)[C@@H](N)CCSC)C(=O)N1CCC[C@H]1C(=O)N[C@@H](CS)C(=O)N[C@H](C(=O)N[C@@H](CO)C(N)=O)C(C)C — remaining activity (12G5 competition, SUP-T1 cells; human plasma; 20 µM, 8 h, 37 °C): 77 ± 24%
Cc1cc(C(=O)NC(C)(C)COc2cccc3c2C(N)=NS(=O)(=O)N3)cc(C)n1 — remaining parent compound (LC-MS; Sprague-Dawley rat liver microsomes; 10 µM, 20 min, pH 7.4, together with: NADPH; reference: time 0): 104%
Cn1cncc1-c1c(F)cncc1NC(=O)c1c(N)nn2cc(F)cnc12 — remaining compound (human EDTA plasma; 4000 ng/mL, time not given, 3 freeze-thaw cycles at -80 °C, high QC): 99.8%
CC(C)C[C@H](NC(=O)[C@H](N)C(C)C)C(=O)N[C@@H](CCCNC(=N)N)C(=O)N[C@@H](Cc1c[nH]c2ccccc12)C(=O)N[C@@H](CO)C(=O)N[C@@H](CCCNC(=N)N)C(=O)N[C@@H](CCCCN)C(=O)N[C@@H](CC(C)C)C(=O)N1CCC[C@H]1C(=O)N[C@@H](CS)C(=O)N[C@H](C(=O)N[C@@H](CO)C(N)=O)C(C)C — remaining activity (12G5 competition, SUP-T1 cells; human plasma; concentration not given, 2 h): 75 ± 8%

Excerpt of the above:
CC(C)C[C@@H]1NC(=O)CNC(=O)[C@H](CC(N)=O)NC(=O)[C@H](CCCNC(=N)N)NC(=O)[C@H]([C@@H](C)O)NC(=O)[C@@H]2CSSC[C@@H]3NC(=O)[C@H]([C@@H](C)O)NC(=O)CNC(=O)CNC(=O)[C@H](C(C)C)NC(=O)[C@@H]4CSSC[C@H](NC(=O)[C@H]([C@@H](C)O)NC(=O)[C@H](CSSC[C@H](NC(=O)[C@H](C(C)C)NC(=O)[C@@H]5CCCN5C1=O)C(=O)NCC(=O)N[C@@H](CCC(=O)O)C(=O)N[C@@H]([C@@H](C)O)C(=O)N4)NC(=O)CNC(=O)[C@@H]1CCCN1C(=O)[C@H]([C@@H](C)O)NC(=O)[C@H](CC(N)=O)NC3=O)C(=O)N[C@@H](CO)C(=O)N[C@@H](Cc1c[nH]c3ccccc13)C(=O)N1CCC[C@H]1C(=O)N[C@@H](C(C)C)C(=O)N2 — remaining peptide (HPLC; ammonium bicarbonate; 180 µM, 14 days, pH 9.0, 25 °C, deamidation stability): 89.9 ± 0.5%
